Assay results pooled from the literature.
Every numbered part comes from another study and shows a few of its results, in no order.

Series 1
Target: RNA binding protein fox-1 homolog 2, RRM domain, GST-SBP tag (RBFOX2, Homo sapiens, UniProt O43251-10, residues 100-194)
Technique: RNA Bind-n-Seq
Form: RNA
Matrix: in vitro
Tested at: 365 nM
Setting: natural RNA segment, single round, ends assumed
Baseline: no-protein control
Reading: higher = stronger binding
Residues (chain): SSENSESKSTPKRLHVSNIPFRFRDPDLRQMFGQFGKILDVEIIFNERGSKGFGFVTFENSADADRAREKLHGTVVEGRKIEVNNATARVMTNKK
| Sequence | RBNS enrichment (R) |
| --- | --- |
| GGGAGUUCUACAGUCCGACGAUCCUCUGCUAAGGUUCCUUCCCUUUGUCUCUGGAAACCCAACCCCACAAGGACAGAGUGGUGAGAACUCCUUCCUGGGAGGAGAUAAGGAGAUAUAAACCUUUAAAUAAAGUUGGAAUUCUCGGGUGCCAA | 0.439 |
| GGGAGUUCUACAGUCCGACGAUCGGGGAUAACGAGACAGGGAAAUGGCCGCCAUGGUGGCCUGCUCCCUGCCAACACUAAUGUUCCCCACACUAUCUUUGUACAUUUCAGAGGUUUGGUCUUCUGGGUGGUGUUGGAAUUCUCGGGUGCCAA | 0.239 |
| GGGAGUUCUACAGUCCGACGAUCAAGAAGGAAUUGGUUGUCAUCUGGCAGUGUUGCGCGUCACAAGAGAGCCUGUAUAUAAAUUAAAAUAGUCAAGACAACACUGACCUUGCACUUGUACAUAACUAUACAGUUGGAAUUCUCGGGUGCCAA | 0.581 |
| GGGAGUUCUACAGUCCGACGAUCAGCCAGGCAUGGUGGUAUACUCCAUUAAUCACUCAGGAGGCAGAGGCAGGUGGAUCUCUGUGAGUUUGAGGUCAGCCUGGUCUACAAAGCAAGUUCCAGGACAGCCAGGGUGGAAUUCUCGGGUGCCAA | 0.688 |
| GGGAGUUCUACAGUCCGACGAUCCCUGGAACUUGCUUUAUAGUCCAGGCUGGCCUCACAUCCACAGAGACAUGCUAGGAUUAAGGGUGUGUGCCACUAUGCCUGGCUUAAGUCUUUUUCUCACUCAAACCUUCUGGAAUUCUCGGGUGCCAA | 0.795 |
| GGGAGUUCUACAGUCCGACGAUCCACGCUUCGCUGCUACCACCCUGGGCUGGACUGGAGGGUGGGUGCGCCAACUCCCACGCAUUCGUGGGCAGAGCCCCGAGGCUGGUGGGCAGGACAAGGGGACUGGAAGAUGGAAUUCUCGGGUGCCAA | 0.477 |
| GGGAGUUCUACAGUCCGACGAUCCUGUGAAUUAGCACUAUUUUCUAUAGUUACUUAUUCUCUGGAUCAUUUUAUAAUUUCCAUAUUAAUUUCAAAUAUGCUCGUGUUAUUCUUCAGUGAUUUCCACAAUUGUGUGGAAUUCUCGGGUGCCAA | 1.5 |
| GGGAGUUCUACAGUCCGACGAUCUAUAUGUGGCCACACUGAUGUUCACCUUUACGUCCAGGGUCUUUGUGCCUUGUCUCUACUCCCUCUCUUGGAUCUGGGGAGGAGGGGCAGAGACCUGGGACUCUGUAUUUUGGAAUUCUCGGGUGCCAA | 0.348 |
| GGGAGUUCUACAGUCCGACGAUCUUGUGAGACAUUCACUUGCUCUUUUGCCAUAUUUAGAUGUGUCAGUGGAAUCAGAAACCUGUUUUGAUAUGUGUUCUCUAUGAGUUAAGUCUGAUUUGUCUUUUUAUUUCUGGAAUUCUCGGGUGCCAA | 0.631 |

Series 2
Target: RING finger protein unkempt homolog, zinc fingers 1-6, GST-SBP tag (UNK, Homo sapiens, UniProt Q9C0B0, residues 30-357)
Chain of UniProt Q9C0B0 (30-357, looked up): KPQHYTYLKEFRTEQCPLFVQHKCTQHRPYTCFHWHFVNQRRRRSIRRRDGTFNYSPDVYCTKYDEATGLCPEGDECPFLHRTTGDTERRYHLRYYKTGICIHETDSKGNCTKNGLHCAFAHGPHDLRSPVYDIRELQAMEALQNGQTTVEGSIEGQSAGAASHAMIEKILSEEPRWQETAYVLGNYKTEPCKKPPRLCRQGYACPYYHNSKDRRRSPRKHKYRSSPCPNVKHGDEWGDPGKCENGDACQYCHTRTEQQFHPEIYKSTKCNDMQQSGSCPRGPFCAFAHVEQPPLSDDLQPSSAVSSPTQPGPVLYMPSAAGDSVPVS
Technique: RNA Bind-n-Seq
Form: RNA
Matrix: in vitro
Tested at: not given
Setting: RNA with constant flanks, human and mouse sites, ends assumed
Baseline: input RNA pool
Reading: higher = stronger binding
| Sequence | bound/input enrichment |
| --- | --- |
| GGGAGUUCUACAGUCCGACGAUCUACACUACAUUUUCUUGGUUAUGUUUGGCACAUGAAUAACAGACACAUGUGGUGUGCUCAUUUUUUAAUUUUGCCAAGCAUAUUUGUUGAUGCUUCUUGUUGUCGUUGUUACUUUGAAAACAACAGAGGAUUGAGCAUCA | 0.426 ratio |
| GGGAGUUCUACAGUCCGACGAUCAAUAGAAGAUCUUCGACAGUGCCUGAACAGGUACAAGAAAAUGCAAGACACGGUGGUACUGGCCCAAGGUAAAAAAGGCAAAGAUGGAGAAUAUGAAGAGCUGCUCAAUUCCAGUUCCAUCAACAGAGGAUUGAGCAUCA | 0.404 ratio |
| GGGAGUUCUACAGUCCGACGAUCCCAUCCCCCCUGCCGUCUCAUACACCAAGAGGCCUCAGGCCAACAGCGUGGAGAGUGAACAGAAGGAGGAGUGGGGCAAAGACACAGCCCGCAGACUUGGCAGCACCACAGUGGGAUCAACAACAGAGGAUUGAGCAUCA | 0.109 ratio |
| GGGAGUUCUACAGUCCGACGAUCAAAGUGAUGACUAUGUUUGUCCAACGACAGGUAUUUUCGGAGAGCAAAGAUGAGAUUGCGUUAGUCCUCUAUGGCACAGAUGGCACUGAUAAUGCCCUUGCUGGCAAGGACCAGUAUCAGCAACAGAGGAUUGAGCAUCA | 0.117 ratio |
| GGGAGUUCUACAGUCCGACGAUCCUGACUAAUGCUUUUGGAAGUUUUGAUCUUCUUGACAACACAGACAUCCAUCUGCACUUCCCAGCUGGAGCUGUCACAAAAGAUGGACCAUCUGCUGGUGUUACCAUAGUAACUUGUCUCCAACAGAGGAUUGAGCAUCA | 0.115 ratio |
| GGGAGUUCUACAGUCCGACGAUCAUGAAGCCAUUAGACUAAUUGCUUGCCAUCAUGAGCAGAAGCAAACGUGACAACAAUUUUUAUAGUGUAGAGAUUGGAGAUUCUACAUUCACAGUCCUAAAACGAUACCAGAAUUUAAAGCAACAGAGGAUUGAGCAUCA | 0.487 ratio |
| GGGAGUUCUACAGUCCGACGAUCUAUUAUUUAUCUGUAUUUUUGGAACUAUCGGCUGGCUUGCCUGAAACUUCCAAGUAUGAAUAUCGUGUAGAAAUGGUUCACCAGUCGUGCAAUGAUCCUACAAAAAAUAUCAUUCGAGAACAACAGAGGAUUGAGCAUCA | 0.141 ratio |
| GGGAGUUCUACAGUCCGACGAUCCAGCGUUGCCUCCCUGUCCUGGGCAGGGGCCACUUGUUAUUUUAUUUAUUUUUAAUUUAUAAUUUAUUCAAAUUGGAUUGCCUUGGUAACCUCCCACACCUGAUAAUUGGCAUCACUCCUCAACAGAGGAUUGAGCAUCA | 1.47 ratio |

Series 3
Target: Fragile X messenger ribonucleoprotein 1, C-terminal low-complexity region (Fmr1, Mus musculus, UniProt P35922)
Technique: RNA Bind-n-Seq
Form: RNA
Matrix: in vitro
Tested at: 200 nM
Setting: whole 134-nt RNA, ends assumed
Together with: 150 mM LiCl
Baseline: input library
Reading: higher = stronger binding
Each molecule: 7-deaza-guanosine replaces G
| Sequence | log2 enrichment |
| --- | --- |
| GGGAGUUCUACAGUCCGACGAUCGCAGGAAGUAAAAACAAAUGGAAAUGCUUCGGAUAGUGGCAGGGGUGGGGGUUGCUAAGGAAAGGGUGGGGUGGGAGUGGGUAAAGAGUUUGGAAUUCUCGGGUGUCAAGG | 2.1 |
| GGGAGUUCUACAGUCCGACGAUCAGUCCUGUGCUACACAUCGUAUGUACCGAAUCGGGUUUUGGGUUUUGGGGUUUUGGGAAAGUAUUAUGUUACGCCGUUCGGAUCUGCACUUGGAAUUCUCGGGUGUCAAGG | -1.59 |
| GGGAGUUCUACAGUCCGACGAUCAAGUCCUGUGCUACACAUCGUAUGUACCGAAUCGGGAAAGGGAAAGGGAAAAAGGGAAAGUAUUAUGUUACGCCGUUCGGAUCUGCACUUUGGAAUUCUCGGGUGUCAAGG | -0.181 |
| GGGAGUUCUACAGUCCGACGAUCCACAGACAACACGCACCCACACAGACACAGAGGGAAGGGGUUGGGAUGGAGACAGGGUGCACAGCAGGGCGGGGUAGGACCCCAGCCCCUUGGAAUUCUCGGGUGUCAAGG | 0.393 |
| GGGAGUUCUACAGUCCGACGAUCUAACUUUAGAGGCGGAUCUGAUGGAUAUGGCAGUGGACGUGGAUUUGGGGAUGGCUAUAAUGGGUAUGGAGGAGGACCUGGAGGUGGCAAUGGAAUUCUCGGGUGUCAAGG | 0.124 |
| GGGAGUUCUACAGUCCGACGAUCGUCCUGUGCUACACAUCGUAUGUACCGAAUCGGGUUUUUUGGUUUUUUGGGUUUUUUGGAAAGUAUUAUGUUACGCCGUUCGGAUCUGCAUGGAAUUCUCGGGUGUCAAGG | -1.32 |
| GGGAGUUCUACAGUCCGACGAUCCCUGUGCUACACAUCGUAUGUACCGAAUCGGGAAAAAAAGGGAAAAAGGGAAAAAAAGGGAAAGUAUUAUGUUACGCCGUUCGGAUCUGCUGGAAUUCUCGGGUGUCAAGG | -0.349 |
| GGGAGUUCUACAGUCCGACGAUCCCUGUGCUACACAUCGUAUGUACCGAAUCGGGGUGGGGAAAAAAAGGGGAAAAAAAGGGGAAAGUAUUAUGUUACGCCGUUCGGAUCUGCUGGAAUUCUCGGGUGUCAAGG | -0.525 |

Series 4
Target: Centromere-binding protein 1, full length, His-tagged (CBF1, Saccharomyces cerevisiae, UniProt P17106, residues 1-351)
Chain of UniProt P17106 (whole entry, looked up): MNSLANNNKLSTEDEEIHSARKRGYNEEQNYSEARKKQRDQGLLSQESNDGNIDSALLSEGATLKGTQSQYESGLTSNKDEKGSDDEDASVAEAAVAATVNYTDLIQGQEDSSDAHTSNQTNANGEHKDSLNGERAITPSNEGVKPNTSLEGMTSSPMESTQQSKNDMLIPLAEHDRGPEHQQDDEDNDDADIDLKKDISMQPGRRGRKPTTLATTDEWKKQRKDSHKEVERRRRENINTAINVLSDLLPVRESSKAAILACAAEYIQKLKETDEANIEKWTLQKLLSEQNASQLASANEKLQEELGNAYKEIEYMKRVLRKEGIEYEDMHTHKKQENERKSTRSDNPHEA
Technique: competition protein-binding microarray
Form: double-stranded DNA, one strand shown
Matrix: in vitro
Tested at: 2 µM
Setting: whole 60-bp probe, lowest competitor level
Together with: Pho4 competitor, 0.05 µM
Reading: higher = stronger binding
| Sequence | fluorescence intensity |
| --- | --- |
| TGGGGCAAAAACCATCACGGGACTTATGTTTCGGGAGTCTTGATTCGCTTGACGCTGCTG | 1060 a.u. |
| TGTGTTGGATCTCAACACGGGGTACCTCCGTATAAGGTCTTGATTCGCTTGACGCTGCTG | 116 a.u. |
| TAGTTATCCAGATGGATCGTGGCCGCGAGTACACTAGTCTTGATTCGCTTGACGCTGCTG | 69 a.u. |
| CTAACGAAGGTTTTTCACGTGTGCTACAAGCCAAGTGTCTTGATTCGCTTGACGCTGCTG | 650 a.u. |
| TCTTTGTCTGCTCGAGACGTGGGTAGTTAGCAAGTCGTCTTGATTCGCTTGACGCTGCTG | 73.2 a.u. |
| ATTTTTCTTTCGAGTCACGTCACCGCTACTAATGTTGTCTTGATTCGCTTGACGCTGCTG | 221 a.u. |
| ATATTATCTTGCGAGCATGTGCACTCAATTTCGGGGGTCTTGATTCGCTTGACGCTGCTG | 319 a.u. |
| CGTCCTAGTGATTGTGAAGTGGGTGCCATGAGGAAGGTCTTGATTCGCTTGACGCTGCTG | 90.7 a.u. |
| TAAAATGACTGACAGCACGGGACCTTTGAAATTTTGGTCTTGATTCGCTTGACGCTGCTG | 415 a.u. |
| CGTCCTAGTGATTGCCTCGTGGGTGCCATGAGGAAGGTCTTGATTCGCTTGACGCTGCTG | 134 a.u. |
| AAGTGCTTTGTTCTTCACGTGCTTTTTACGTCTATGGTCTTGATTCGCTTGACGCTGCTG | 1750 a.u. |
| GATAATTGAGTGTGTTCGTCATAATTTTTAATAAGGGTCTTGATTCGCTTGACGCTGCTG | 84.3 a.u. |
| GGGTTATCGTAGTGAGTCGTGGCCGCAACGATAGCAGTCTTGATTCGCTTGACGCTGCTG | 53.3 a.u. |
| CTAACGAAGGTTTGTCACGTGGGTGACAAGCCAAGTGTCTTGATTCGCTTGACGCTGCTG | 4620 a.u. |
| CTAACGAAGGTTTGACACGTGGGTGACAAGCCAAGTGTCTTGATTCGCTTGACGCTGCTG | 936 a.u. |
| ATGCTAAGAGATACGCTCGTGATGGCTTGGCGCAATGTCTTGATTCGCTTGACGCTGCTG | 123 a.u. |
| TAGAGGTGCCATTGTCATGTTCAGATCCAAAGAAGGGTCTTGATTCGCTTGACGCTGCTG | 55.1 a.u. |
| CGGGGTTAAGTTTGCGAGGTGGGTGGCTTGCAGCAGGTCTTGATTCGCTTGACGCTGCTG | 62.4 a.u. |
